Measured values collected from several papers.
Lines come from different studies, so protocols differ. Several values in a cell are separate wells, animals, samples, runs or records. Numbers after ± are the reported error.

| SMILES | target or system | test | system | setting | scale | quantity | result |
| --- | --- | --- | --- | --- | --- | --- | --- |
| Cc1cn(CC(=O)N(CCNC(=O)CN(CCNC(=O)CN(CCNC(=O)CN(CCNC(=O)CN(CCNC(=O)CN(CCNC(=O)CN(CCNC(=O)CN(CCN)C(=O)Cn2cnc3c(=O)[nH]c(N)nc32)C(=O)Cn2cnc3c(N)ncnc32)C(=O)Cn2cc(C)c(=O)[nH]c2=O)C(=O)Cn2cnc3c(=O)[nH]c(N)nc32)C(=O)Cn2cc(C)c(=O)[nH]c2=O)C(=O)Cn2cnc3c(=O)[nH]c(N)nc32)C(=O)Cn2cnc3c(N)ncnc32)CC(=O)NCCN(CC(=O)NCCOCCOCC(N)=O)C(=O)Cn2cnc3c(N)ncnc32)c(=O)[nH]c1=O | mismatched RNA TU | duplex formation, UV melting | – | – | baseline: complementary RNA | ΔTm | -14.3 °C |
| c1ccc(-c2n[nH]cc2-c2ccnc3ccccc23)nc1 | KSP1 (Candida albicans) | kinase binding, MIB/MS competition | Candida albicans lysate | 1 µM | baseline: DMSO | log2 fold change | 0.06 |
| C[n+]1cccc2cc(/C=N/NC(=O)c3cc(C(=O)N/N=C/c4ccc5c(ccc[n+]5C)c4)ncn3)ccc21 | 22CTA telomeric G4-DNA antiparallel | FRET melting | – | 1 µM, K10 buffer, DNA 0.2 µM, together with: ds26 10 µM | – | ΔTm | 1.9 ± 0.6 °C |
| c1ccc(CSc2nc3ccccc3cc2CNCCC2CCN(C3CCCC3)CC2)cc1 | electron transport chain | proton pumping, ACMA quenching | Pseudomonas aeruginosa inverted membrane vesicles | 2 µg/mL, together with: NADH | – | inhibition | 4% |
| Cc1ccc(-c2ccc([C@H]3[C@@H](F)[C@@H](F)C[C@@H](F)[C@H]3F)cc2)cn1 | – | liver microsome stability | dog liver microsomes | 1 µM | – | hepatic clearance | 28 mL/min/kg |
| O=c1c(Oc2ccccc2)c(C(F)(F)F)oc2c(O)c(O)ccc12 | ROC1-CUL1 E3 subcomplex | di-ubiquitin synthesis | – | 3 µM | baseline: input | di-ubiquitin formed | 61% |
| OC[C@H]1O[C@@H]2O[C@H]3[C@H](O)[C@@H](O)[C@@H](O[C@H]4[C@H](O)[C@@H](O)[C@@H](O[C@H]5[C@H](O)[C@@H](O)[C@@H](O[C@H]6[C@H](O)[C@@H](O)[C@@H](O[C@H]7[C@H](O)[C@@H](O)[C@@H](O[C@H]1[C@H](O)[C@H]2O)O[C@@H]7CO)O[C@@H]6CO)O[C@@H]5CO)O[C@@H]4CO)O[C@@H]3CO | LuxR | Escherichia coli sensor | – | 20 µM | higher = stronger induction | bioluminescence induction | 808 ± 75 RLU |
| Cn1ccc2cc(-n3c(=O)[nH]c4sc5c(c4c3=O)CCCC5)ccc21 | rat kainate receptor | radioligand binding | – | 10 µM | – | inhibition | 4% |
| Nc1ncc(-c2cc(-c3cnn(CC(F)(F)F)c3)ncc2F)nc1C(=O)NC1CNCC(F)C1 (stereo not drawn) | CSNK1G1 | KINOMEscan | – | 1 µM | baseline: DMSO control | remaining binding | 73% |
| O=C(N/N=C/c1cc[n+](Cc2ccccc2)c2ccccc12)c1cc(C(=O)N/N=C/c2cc[n+](Cc3ccccc3)c3ccccc23)ncn1 | 22CTA telomeric G4-DNA antiparallel | FRET melting | – | 1 µM, K10 buffer, DNA 0.2 µM | – | ΔTm | 13.2 ± 0.7 °C |
| C=CC(=O)N1[C@H](c2ccc3c(c2)OCO3)c2[nH]c3ccccc3c2C[C@@H]1C(=O)N1CCN(C)CC1 | human cyclin E1 N112C-3xFLAG:CDK2 | co-IP with TMT proteomics, item: ELP5 | – | concentration not given, Q8TE02 | baseline: wild type DMSO | relative co-enrichment | 80% |
| N#Cc1ccc(-c2cnc(C(=O)CCCCCCc3ccccc3)o2)nc1 | fatty-acid amide hydrolase (mouse) | item: anandamide levels | mouse, brain | i.p., dose not given | – | inhibition | > 90% |
| O=C(N/N=C/c1ccc2c(ccc[n+]2Cc2ccccc2)c1)N/N=C/c1ccc2c(ccc[n+]2Cc2ccccc2)c1 | 22CTA telomeric G4-DNA antiparallel | FRET melting | – | 1 µM, K10 buffer, DNA 0.2 µM, together with: ds26 10 µM | – | ΔTm | 9.3 ± 0.2 °C |
| C=CC(=O)Nc1cccc(Cn2ncc3cnc(Nc4cnn(CCOC)c4)nc32)c1 | PIK3CB human | binding, KINOMEscan | – | 100 nM | lower = stronger binding | percent of control | 100% |
| O=C(c1ccc(C2CCCCC2)cc1)N1CCCC1 | – | liver microsome stability | cynomolgus liver microsomes | 1 µM | – | hepatic clearance | 41 mL/min/kg |
| O=C(N/N=C/c1cc[n+](Cc2ccccc2)c2ccccc12)c1cccc(C(=O)N/N=C/c2cc[n+](Cc3ccccc3)c3ccccc23)n1 | 22CTA telomeric G4-DNA antiparallel | FRET melting | – | 1 µM, K10 buffer, DNA 0.2 µM | – | ΔTm | 17.8 ± 0.6 °C |
| CC(C)Oc1cc(Cl)ccc1CNc1cc(-c2ccccc2)nc2ncnn12 | endogenous β-adrenergic receptors | cAMP level, cAMP GloSensor | mock-transfected cells | 10 nM, together with: isoprenaline 30 nM | higher = more cAMP | cAMP luminescence | 22200 a.u. and 25000 a.u. and 27400 a.u. |
| C[n+]1cc(/C=N/NC(=O)c2ccc3ccc(C(=O)N/N=C/c4cc5ccccc5[n+](C)c4)nc3n2)cc2ccccc21 | 22CTA telomeric G4-DNA antiparallel | FRET melting | – | 1 µM, K10 buffer, DNA 0.2 µM | – | ΔTm | 12.5 ± 0.3 °C |
| Cc1[nH]nc2c1N=C(c1ccccc1Cl)c1cnc(N3CCOCC3)cc1N2 | NMDA receptor agonist site, rat | radioligand binding | – | 10 µM | – | inhibition | 0% |
| C[n+]1ccc(/C=N/NC(=O)C(=O)N/N=C/c2cc[n+](C)c3ccccc23)c2ccccc21 | 22CTA telomeric G4-DNA antiparallel | FRET melting | – | 1 µM, K10 buffer, DNA 0.2 µM, together with: ds26 10 µM | – | ΔTm | 2 ± 0.6 °C |
| COc1c(Cl)cccc1Nc1c(-c2ccncc2C#C[C@@]2(C)CCCN2C(=O)/C=C/CN(C)C)[nH]c2c1C(=O)NCC2 | DUSP4 human | cysteine engagement, chemoproteomic profiling, item: DUSP4 peptide 244-252 | NCI-H2073 | 10 µM, 2 h | baseline: DMSO | log2 fold change | 2.45 |

For quick reference, copied from above:
| SMILES | target or system | test | system | setting | scale | quantity | result |
| --- | --- | --- | --- | --- | --- | --- | --- |
| C[n+]1cccc2cc(/C=N/NC(=O)c3cc(C(=O)N/N=C/c4ccc5c(ccc[n+]5C)c4)ncn3)ccc21 | 22CTA telomeric G4-DNA antiparallel | FRET melting | – | 1 µM, K10 buffer, DNA 0.2 µM, together with: ds26 10 µM | – | ΔTm | 1.9 ± 0.6 °C |
| N#Cc1ccc(-c2cnc(C(=O)CCCCCCc3ccccc3)o2)nc1 | fatty-acid amide hydrolase (mouse) | item: anandamide levels | mouse, brain | i.p., dose not given | – | inhibition | > 90% |
| CC(C)Oc1cc(Cl)ccc1CNc1cc(-c2ccccc2)nc2ncnn12 | endogenous β-adrenergic receptors | cAMP level, cAMP GloSensor | mock-transfected cells | 10 nM, together with: isoprenaline 30 nM | higher = more cAMP | cAMP luminescence | 22200 a.u. and 25000 a.u. and 27400 a.u. |
